Assay results from different studies.
Each line is one published result; not all experiments were run side by side. Numbers after ± are the reported error.

SMILES	target or system	test	system	setting	measurement	result
CCN(CC)CCCCNc1ncc2cc(-c3cc(OC)cc(OC)c3)c(NC(=O)NC(C)(C)C)nc2n1	human coronavirus OC43	virus-induced cell killing	MRC-5	maximum over 10 doses	maximum inhibition	0%
CCOC(=O)C1=C[C@@H](OC(CC)CC)[C@H](NC(C)=O)[C@@H](N)C1	–	non-compartmental analysis	Sprague-Dawley rats, male, plasma	oral, 30 mg/kg, alone	half-life	3.9 ± 1.7 h
CC(=O)c1c([O-])cc(C)oc1=O.[Na+]	–	–	male Wistar rat, plasma	oral, 200 mg/kg, no CYP inhibitor	half-life	9.21 ± 1.25 h
COC[C@@]12CC[C@H](OC)[C@]34C(C([C@H](OC)[C@H]13)[C@]1(OC(C)=O)[C@H]3[C@@H](OC(=O)c5ccccc5)[C@](O)(C[C@H]34)[C@@H](OC)[C@@H]1O)N(C)C2	–	–	Sprague-Dawley rat, plasma	oral, dose not given, with NADES in PCW extract	half-life	3.57 ± 1.33 h
O=[Se](=O)([O-])[O-].[Na+].[Na+]	–	–	rat	subcutaneous, 0.2 mg/kg	half-life	5.15 h
CC(C)[C@@H](CN1CC[C@@](C)(c2cccc(O)c2)[C@@H](C)C1)NC(=O)[C@@]1(C)Cc2ccc(O)cc2CN1	–	–	rat, brain	intraperitoneal, 5 mg/kg	half-life	30.7 h
COc1ccc2c3c1O[C@H]1C[C@@H](OC(=O)c4ccccc4)C=C[C@@]31CCN(C)C2	–	–	Wistar rat, female, blood	intravenous, 5.0 mg/kg	half-life	0.91 h
Cn1cccc1-c1cccnc1	–	one-compartment model	rat, serum	iv, 1.0 mg/kg	half-life	0.75 h
CN1[C@H]2CC[C@@H]1[C@@H](C(=O)O)[C@@H](OC(=O)c1ccccc1)C2	–	LC-MS/MS	Sprague-Dawley rat, whole blood	intraperitoneal, 20 mg/kg of cocaine	half-life	2.7 ± 0.301 h
Cc1ccc(S(=O)(=O)Nc2c(N[C@H]3CC[C@H](NC(=O)Nc4ccc(F)c(Cl)c4)CC3)c(=O)c2=O)cc1	–	–	rat, plasma	oral, 20 mg/kg	half-life	1.96 h
CN1C(=O)[C@@]23C[C@]4([C@]56C[C@@]78SS[C@@](CO)(C(=O)N7[C@H]5Nc5ccccc56)N(C)C8=O)c5ccccc5N[C@@H]4N2C(=O)[C@]1(CO)SS3	human coronavirus OC43	virus-induced cell killing	MRC-5	screen	maximum inhibition	4.88%
COC(=O)[C@H]1[C@@H](OC(=O)c2ccccc2)C[C@@H]2CC[C@H]1N2C	–	LC-MS/MS	Sprague-Dawley rat, male, whole blood	intraperitoneal, 20 mg/kg	half-life	0.498 ± 0.0297 h
COc1cccc([C@]2(C)CCN(C[C@@H](NC(=O)[C@H]3Cc4ccc(O)cc4CN3)C(C)C)C[C@@H]2C)c1	–	–	rat, brain	intraperitoneal, 5 mg/kg	half-life	29.5 h
CCN1C[C@]2(COC)[C@H](O)C[C@H](OC)[C@@]34[C@@H]5C[C@@]6(O)[C@H](OC(=O)c7ccccc7)[C@@H]5[C@@](OC(C)=O)([C@@H]([C@H](OC)[C@H]23)[C@@H]14)[C@@H](O)[C@@H]6OC	–	–	Sprague-Dawley rat, plasma	oral, dose not given, in PCW extract	half-life	1.98 ± 0.187 h
COc1ccc2c(c1)CN[C@@H](C(=O)N[C@H](CN1CC[C@@](C)(c3cccc(O)c3)[C@@H](C)C1)C(C)C)C2	–	–	Sprague-Dawley rat, brain	intraperitoneal, 5 mg/kg	half-life	76.2 h
COC(=O)[C@@H]1[C@H]2CC[C@@H](C[C@@H]1O)N2C	–	LC-MS/MS	Sprague-Dawley rat, whole blood	intraperitoneal, 20 mg/kg of cocaine	half-life	2.35 ± 0.119 h
[Se]	–	–	rat, plasma	subcutaneous, 0.2 mg/kg, sodium selenate	half-life	4.75 h
CC(C)(C)[C@H](NC(=O)[C@H](CCONC(=N)N)NC(=O)Cc1ccc(CNC(=N)N)cc1)C(=O)N[C@@H](CCONC(=N)N)C(=O)NCc1ccc(C(=N)N)cc1	–	–	Sprague Dawley rat, male, plasma	intravenous, 1 mg/kg	half-life	3 h
CN1CC[C@]23c4c5ccc(O)c4O[C@H]2[C@@H](O[C@@H]2O[C@H](C(=O)O)[C@@H](O)[C@H](O)[C@H]2O)C=C[C@H]3[C@H]1C5	–	LC-MS/MS	male Sprague-Dawley rat, whole blood	intraperitoneal, 10 mg/kg of heroin	half-life	0.88 ± 0.155 h
COC[C@]12CN(C)[C@@H]3[C@@H]4[C@H](OC)[C@H]1[C@@]3([C@@H](OC)C[C@H]2O)[C@@H]1C[C@@]2(O)[C@H](OC(=O)c3ccccc3)[C@@H]1[C@]4(OC(C)=O)[C@@H](O)[C@@H]2OC	–	–	Sprague-Dawley rat, plasma	oral, dose not given, with H in PCW extract	half-life	3.98 ± 1.42 h
CC(C)[C@@H](CN1CC[C@@](C)(c2cccc(O)c2)[C@@H](C)C1)NC(=O)[C@@H]1Cc2ccc(O)cc2CN1C	–	–	rat, brain	intraperitoneal, 5 mg/kg	half-life	24.3 h
CC(C)C[C@@H]1NC(=O)[C@H](CC(=O)O)NC(=O)[C@H](Cc2ccccc2)NC(=O)[C@H](Cc2c[nH]cn2)NC(=O)[C@H]([C@@H](C)O)NC(=O)[C@H](Cc2ccccc2)NC(=O)[C@@H](NC(=O)[C@H](C)NC(=O)COCCOCCNC(=O)COCCOCCNC(=O)CC[C@H](NC(=O)CCCCCCCCCCCCCCCCC(=O)O)C(=O)O)CSSC[C@@H](C(=O)O)NC(=O)[C@H](Cc2ccccc2)NC(=O)[C@@H]2CCCN2C(=O)[C@H](Cc2c[nH]c3ccccc23)NC(=O)[C@H](CC(C)C)NC1=O	–	–	Sprague-Dawley rat, male, plasma	intravenous	half-life	4.17 h

A few entries again:
SMILES	target or system	test	system	setting	measurement	result
COC(=O)[C@@H]1[C@H]2CC[C@@H](C[C@@H]1O)N2C	–	LC-MS/MS	Sprague-Dawley rat, whole blood	intraperitoneal, 20 mg/kg of cocaine	half-life	2.35 ± 0.119 h
